Measurements from different studies.
“And” joins repeats or separate records; there may be more than shown. ± gives the spread as reported.
USP3 ZnF-UBD domain: Ubiquitin carboxyl-terminal hydrolase 3, ZnF-UBD domain (USP3, Homo sapiens, UniProt Q9Y6I4)
Sequence of UniProt Q9Y6I4 (whole entry, looked up): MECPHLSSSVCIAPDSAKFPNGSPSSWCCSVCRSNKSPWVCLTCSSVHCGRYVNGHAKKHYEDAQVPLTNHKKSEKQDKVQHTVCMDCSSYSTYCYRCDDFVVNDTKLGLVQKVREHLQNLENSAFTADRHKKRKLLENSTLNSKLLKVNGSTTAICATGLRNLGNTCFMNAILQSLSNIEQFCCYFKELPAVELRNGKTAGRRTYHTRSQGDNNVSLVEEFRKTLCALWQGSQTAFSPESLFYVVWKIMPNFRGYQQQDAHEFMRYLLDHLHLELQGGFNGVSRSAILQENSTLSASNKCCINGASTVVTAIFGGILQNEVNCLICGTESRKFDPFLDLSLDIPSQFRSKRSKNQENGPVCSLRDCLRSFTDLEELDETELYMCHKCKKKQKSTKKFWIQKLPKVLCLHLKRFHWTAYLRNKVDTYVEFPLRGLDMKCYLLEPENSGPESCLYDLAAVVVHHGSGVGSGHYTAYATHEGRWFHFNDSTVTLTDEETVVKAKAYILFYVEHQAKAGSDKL

CNC(=O)c1ccc(-c2cnc3ncc(Cc4ccc5ncccc5c4)n3n2)cc1F — patients with adverse event (refers to: Diarrhea, all grades; gastric cancer patients; oral, 600 mg twice daily, expansion cohort, any causality): 11%
COc1ccc([C@@H](O)c2cc(-c3ncnc4cc(N5CCOCC5)ccc34)c(F)cc2Cl)nn1 — drug-related lymphocyte count decrease (locally advanced rectal cancer; all dose levels overall, together with: capecitabine and radiotherapy): 32%
CN(C(=O)n1cnc(-c2cccnc2)c1)C1CCCCC1 — concentration (Wistar rat, cerebral cortex; oral, 10 mg/kg/day of BIA 10-2474, 4 h, repeated 5 days): 27.5 ± 4.4 ng/g
Cc1cn(C(=O)c2c(-c3c(Cl)cc(Cl)cc3Cl)noc2C(C)(C)F)c2cccc(/C=C/C(=O)O)c12 — AUC(0-8h) (human patients; 1400 mg bid, cycle 8 day 1): 313000 ng·h/mL
O=C(O)CCC(=O)O.[2H]C([2H])([2H])Oc1cc(C)c2[nH]ccc2c1CN1CC[C@@H](C2CC2)C[C@H]1c1ccc(C(=O)O)cc1 — subjects with TEAE Appendicitis (multiple ascending dose; healthy Chinese subjects; 100 mg twice daily): 0%
CNC(=O)c1ccc(-c2cnc3ncc(Cc4ccc5ncccc5c4)n3n2)cc1F — AUCinf (human, healthy subjects, plasma; oral, 200 mg, covariate-adjusted geometric mean): 6670 ng·h/mL
Cn1cc(Nc2nccc(-c3ccc4c(c3)CN(C3COC3)CC[C@H]4NC(=O)c3cn(C(C)(C)C)nn3)n2)cn1 — CD3+ T cell count change (human, whole blood; 300 mg twice daily, day 7; relative to: pre-dose baseline): -2.17%
[18F]c1ccc(-c2ccc3c(c2)[nH]c2ccncc23)cn1 — SUV (microPET/CT imaging; B6SJL mouse, normal, heart; intravenous, 20 min): 0.632 ± 0.193
NC(=O)CCNC(=O)c1ccc([C@H]2[C@@H](F)[C@@H](F)C[C@@H](F)[C@H]2F)cc1 — hepatic clearance (hepatocyte stability; cryopreserved human hepatocytes; 1 µM): 6.2 mL/min/kg
O=C(OC(C(F)(F)F)C(F)(F)F)N1CCN(Cc2cccc(Oc3ccccc3)c2)CC1 — k2 (PET blocking study; rhesus monkey, brain CB; 0.03 mg/kg, compound pretreatment, together with: [18F]T-401 tracer): 0.071 min⁻¹
CC(C)(c1ccc(O)cc1)c1ccc(O)cc1 — dose fraction in milk fat (whole cow milk; 20 nM nominal): 39.6%
COc1ccc2nccc(N3CCc4c(cc(Cn5ccnc5)cc4-c4cn(C)nc4C(F)(F)F)C3=O)c2c1 — AUC extrapolated (CD-1 mouse, male, plasma; oral, 10 mg/kg): 0.8%
O=C(NCCN1CCCC1)c1cc(-c2ccc(CN3CCOCC3)cc2)nc2ccc(F)cc12 — intrinsic clearance (human hepatocytes): < 0.5 mL/min/g
CSCC[C@H](N)C(=O)N[C@@H](CC(C)C)C(=O)N[C@@H](CCCNC(=N)N)C(=O)N[C@@H](Cc1c[nH]c2ccccc12)C(=O)N[C@@H](CO)C(=O)N[C@@H](CCCNC(=N)N)C(=O)N[C@@H](CCCCN)C(=O)N[C@@H](CC(C)C)C(=O)N1CCC[C@H]1C(=O)N[C@@H](CS)C(=O)N[C@H](C(=O)N[C@@H](CO)C(N)=O)C(C)C — remaining activity (12G5 competition, SUP-T1 cells; human plasma; 20 µM, 8 h, 37 °C): 2 ± 0.3%
CC(C)(C(=O)N1CCOc2c(C#N)cncc2C1)C(F)F — subjects with TEAE (refers to: nervous system disorders; healthy humans, both sexes; oral, 30 mg single dose): 33.3%
Oc1ccc(/C=C/c2cc(O)cc(O)c2)cc1 — inorganic phosphorus (rat, azoxymethane-injected, blood at sacrifice; 10 mg/kg): 6.9 mg/dL and 6.2 mg/dL and 9 mg/dL
C=CCn1c(=O)c2cnc(Nc3ccc(N4CCN(C)CC4)cc3)nc2n1-c1cccc(C(C)(C)O)n1 — AUC(0-10 h) (human patients; oral, 150 mg twice daily, day 17, cycle 1, together with: durvalumab 1500 mg iv): 5.02 µM·h
Cc1ccc(CCC(=O)Nc2nnc(S(N)(=O)=O)s2)cc1 — unbound plasma concentration (BALB/c mouse, male, plasma; oral, 20 mg/kg, 2 h): 0.311 ng/mL
Cc1nc2ccc(F)cc2n1-c1nc(N)c(F)c(Nc2ccc(C(F)(F)F)cc2)n1 — myelosuppression-related DLT (leiomyosarcoma patients; 300 mg twice weekly, together with: dacarbazine 1000 mg/m^2; relative to: subjects): 14.2%
O=C(O)CCC(=O)c1ccc(S(=O)(=O)N2CCCC2)cc1 — Kd (USP3 ZnF-UBD domain): 91.5 µM
CN(CCC#N)C(=O)c1ccc(C2CCCCC2)cc1 — hepatic clearance (liver microsome stability; human liver microsomes; 1 µM, without NADPH): 3.9 mL/min/kg
Cc1nc(-c2ccc(OCC(C)C)c(C#N)c2)sc1C(=O)O — body weight (KM mouse, chronic hyperuricaemia model; dose not given, day 20): 34.4 g and 32.2 g and 42 g and 37 g and 38.8 g and 31.8 g
C[C@@H]1CCO[C@H]2Cn3cc(C(=O)NCc4ccc(F)cc4F)c(=O)c(O)c3C(=O)N12 — trough concentration (C24) (human paediatric patients, weight sample C to under sample D kg, plasma; oral, 22.4 mg granules, 24 h, steady state, geometric mean, population PK post-hoc, N 3): 962 ng/mL
Cc1cc(Nc2ccc(S(F)(F)(F)(F)F)cc2)n2nc(C(C)(F)F)nc2n1 — AUC(0-168 h) (LC-MS/MS; human vivax malaria patients, plasma; oral, 600 mg, mean): 744000 ng·h/mL
O=C(c1ccc([C@H]2[C@@H](F)[C@@H](F)C[C@@H](F)[C@H]2F)cc1)N1CC(O)C1 — hepatic clearance (hepatocyte stability; cryopreserved mouse hepatocytes; 1 µM): 21 mL/min/kg
Cc1cc(NC2CCN(C(=O)OC3CCN(C(=O)/C=C/CN(C)C)C3)CC2)n2ncc(C(C)C)c2n1 (centres unmarked) — patients with adverse event (Phase I dose escalation CTCAE v4.0, refers to: back pain; patients with advanced solid tumours; dose not given, Total dosing any grade): 6%
CN(Cc1cccnc1)C(=O)c1ccc([C@H]2[C@@H](F)[C@@H](F)C[C@@H](F)[C@H]2F)cc1 — hepatic clearance (liver microsome stability; rat liver microsomes; 1 µM): 40 mL/min/kg
CCn1ncc2c1-c1cnc(N)c(c1)O[C@H](C)c1cc(F)ccc1-c1nn(C)nc1C2 — unbound plasma trough concentration (female BALB/c nude mice, PDX; oral, 0.04 mg/kg once daily for 1 days, 12 h): 0.7 ± 0.3 nM
Cc1ccc(Sc2ccccc2N2CCNCC2)c(C)c1 — participants with TEAE (refers to: haemoglobin decreased; healthy adult men; oral, 10 mg daily, 12 days): 0%
CC(=O)O[C@@]12CO[C@@H]1C[C@H](O)[C@@]1(C)C(=O)[C@H](O)C3=C(C)[C@@H](OC(=O)[C@H](O)[C@@H](NC(=O)OC(C)(C)C)c4ccccc4)C[C@@](O)([C@@H](OC(=O)c4ccccc4)[C@H]21)C3(C)C — release (dialysis; PBS with 10% serum; 2 h, pH 7.4, 37 °C): 93.5%
Cc1ccc(OC2CCN(c3ncnc4ccc(F)cc34)CC2)cn1 — intrinsic clearance (scaled) (human liver microsomes): 290 mL/min/kg
CC1(C)CC[C@]2(C(=O)O)CC[C@]3(C)C(=CC[C@@H]4[C@@]5(C)C[C@@H](O)[C@H](OC(=O)/C=C/c6ccc(O)cc6)C(C)(C)[C@@H]5CC[C@]43C)[C@@H]2C1 (relative stereo) — MRT(0-inf) (C57BL/6 mice, brain; intraperitoneal, 85 µmol/kg single dose): 3.59 h
C[C@@H]1COCCN1c1cc(C2([S@](C)(=N)=O)CC2)nc(-c2cc[nH]c3nccc2-3)n1 — white blood cell count (female BALB/c mice; dose not given, 48 h, together with: total body irradiation 6 Gy; relative to: irradiation alone): no effect
COc1ccnc(C(N)=O)c1O — KFoc (soil adsorption; clay soil; pH 7.6, organic carbon 1.7 %): 669 mL/g
O=C(Nc1nc2cccc(-c3ccc(CN4CCS(=O)(=O)CC4)cc3)n2n1)C1CC1 — patients with erythema (rheumatoid arthritis patients; oral, 200 mg once daily, 4 weeks, regardless of relatedness): 8.3%
CCN1/C(=C/C(C)=O)Sc2ccc(F)cc21 — PR interval (cynomolgus monkey; oral, 10 mg/kg, 4 h post-dose): 95 ± 2 ms
COc1ccc2c(=O)n(C)c(-c3ccccc3)nc2c1 — concentration (Sprague-Dawley rat, male, small intestine; oral, 30 mg/kg, 0.5 h): 27300 ng/mL
C=CC(=O)Nc1cc(Nc2nccc(-c3cn(C)c4ccccc34)n2)c(OC)cc1N(C)CCN(C)C — recovery (storage stability; human dried blood spots; 72 h, on ice, medium QC level): 69.2%
CC(C)c1nc(N(C)S(C)(=O)=O)nc(-c2ccc(F)cc2)c1/C=C/[C@@H](O)C[C@@H](O)CC(=O)O — subjects with adverse event (refers to: toothache; healthy men; oral, dose not given, 8 days, treatment-emergent, crossover trial): 0%
CCOc1c([C@H](C)n2nc(C)c3c(N)ncnc32)cc(Cl)c(F)c1[C@@H]1CNC(=O)C1 — observations with PR ≤200 ms (human B-cell malignancy patients; oral, all doses, baseline below threshold): 91.1%
N#CCC(=O)Nc1ccc([C@H]2[C@@H](F)[C@@H](F)C[C@@H](F)[C@H]2F)cc1 — hepatic clearance (liver microsome stability; cynomolgus liver microsomes; 1 µM): 18 mL/min/kg
O=C(O)CC1Oc2ccccc2NC1=O (centres unmarked) — Kd (USP3 ZnF-UBD domain): > 1000 µM
O=C(Nc1ccc(C2CCCCC2)cc1)[C@H]1CC1(F)F — hepatic clearance (liver microsome stability; mouse liver microsomes; 1 µM): 86 mL/min/kg
Cn1ncnc1[C@H]1c2n[nH]c(=O)c3cc(F)cc(c23)N[C@@H]1c1ccc(F)cc1 — AUC(0-8h) (human patients, plasma; oral, 600 µg/m2 twice daily day 1, day 5, dose level DL6, median, together with: temozolomide 55 mg/m2 daily days 2-6): 76.1 ng·h/mL
O=C(Nc1ccc(Cl)cc1)Nc1ccc(Cl)c(Cl)c1 — dose fraction in milk fat (whole cow milk; 2000 nM nominal): 85.8%
NCCONC(=O)[C@@H]1CC[C@@H]2CN1C(=O)N2OS(=O)(=O)O — adverse event incidence (healthy Chinese men; intravenous, 1 g, treatment-related): 37.5%
CC(C)C[C@@H]1NC(=O)[C@H](C)NC(=O)[C@H](Cc2ccccc2)NCC2=CC=C(CN(C)C1=O)O2 — -log Pe (PAMPA; 2% lecithin in dodecane; 100 µM, 17 h, pH 6.4, 37 °C): 5.71 + 0.03
CNCc1ccc(-c2[nH]c3cc(F)cc4c3c2CCNC4=O)cc1 — dysgeusia incidence (human patients; oral, 360 mg twice daily, all grades): 25%
C[C@@H](Oc1ccc(S(C)(=O)=O)cc1C(=O)N1C[C@@H]2C[C@]2(c2cc(C(F)(F)F)on2)C1)C(F)(F)F — half-life (young humans, plasma; oral, 50 mg once daily, single dose, geometric mean): 48.3 h
N#Cc1ccc2c(c1)[C@H]1CCCN(C(=O)c3ccc4[nH]cnc4c3)[C@H]1C2 — mean ACTH level (human; 10 mg, end of trial): 6.3 pmol/L
O=C(NCc1cc[nH]n1)c1ccc([C@H]2[C@@H](F)[C@@H](F)C[C@@H](F)[C@H]2F)cc1 — hepatic clearance (hepatocyte stability; cryopreserved mouse hepatocytes; 1 µM): 37 mL/min/kg
CCN1CCN(Cc2ccc(NC(=O)c3ccc(C)c(NC(=O)c4cncc(-c5cccs5)c4)c3)cc2C(F)(F)F)CC1 — plasma concentration (LC-MS/MS; C57BL/6 mouse, plasma; intraperitoneal, 15 mg/kg single dose, 6 h): 80 ng/mL and 81 ng/mL and 44 ng/mL
O=C(Cc1cccnc1)Nc1ccc(C2CCCCC2)cc1 — hepatic clearance (cryopreserved human hepatocytes; 1 µM): 16 mL/min/kg
COc1cccc(-c2n[nH]c(SCc3ccccn3)n2)c1OC — plasma concentration (Sprague-Dawley rats, both sexes; oral dietary, 10 mg/kg/day, day 7, 0 h): 25.1 ng/mL
CN1C(=O)[C@@H](NC(=O)c2nnc(Cc3ccccc3)[nH]2)COc2cccnc21 — TEAE leading to permanent discontinuation (phase I single ascending dose; human, male and female; oral, 200 mg, fasted): 0%
O=C(O)c1ccccc1O — AUC(0-2 h) (humans, both sexes, plasma; oral, 650 mg aspirin, with alcohol, geometric mean): 13000 ng·h/mL
C=CC(=O)NC1CCN(c2ncc3ncnc(Nc4ccc(Oc5ccc6c(c5)ncn6C)c(C)c4)c3n2)CC1 — AUC(0-tz) (human, male, plasma; oral, 240 mg single dose, fed, geometric mean): 59.5 µM·h
CNC(=O)c1ccc(-c2cnc3ncc(Cc4ccc5ncccc5c4)n3n2)cc1F — Cellulitis dose reduction/interruption (Japanese patients; oral, 400 mg, any grade): 2%
O=C(COc1ccc(Cl)cc1)NC12CC(c3nnc([C@H]4C[C@@H](OC(F)(F)F)C4)o3)(C1)C2 — treatment-emergent adverse events (abdominal discomfort; human, both sexes; oral, 100 mg, single ascending dose, fed; relative to: subjects): 16.7%

Some of these lines once more:
Oc1ccc(/C=C/c2cc(O)cc(O)c2)cc1 — inorganic phosphorus (rat, azoxymethane-injected, blood at sacrifice; 10 mg/kg): 6.9 mg/dL and 6.2 mg/dL and 9 mg/dL
C[C@@H](Oc1ccc(S(C)(=O)=O)cc1C(=O)N1C[C@@H]2C[C@]2(c2cc(C(F)(F)F)on2)C1)C(F)(F)F — half-life (young humans, plasma; oral, 50 mg once daily, single dose, geometric mean): 48.3 h
C[C@@H]1COCCN1c1cc(C2([S@](C)(=N)=O)CC2)nc(-c2cc[nH]c3nccc2-3)n1 — white blood cell count (female BALB/c mice; dose not given, 48 h, together with: total body irradiation 6 Gy; relative to: irradiation alone): no effect
C=CC(=O)Nc1cc(Nc2nccc(-c3cn(C)c4ccccc34)n2)c(OC)cc1N(C)CCN(C)C — recovery (storage stability; human dried blood spots; 72 h, on ice, medium QC level): 69.2%
